Experimental data of several laboratories.
Lines come from different studies, so protocols differ. ± marks the error that the study gave. Converted amounts (≈) assume the structure as drawn.

COc1ccc(/C=C/c2ccc(-c3ccc(C)cn3)nc2)cc1 — radiative decay rate constant (TCSPC; hexanes): 0.65 ns⁻¹
CC(C)c1cnc(-c2cc(Cl)ccc2F)cc1Nc1ccncc1C(=O)NC(CO)CO — patients with treatment-related adverse event (monotherapy, refers to: diarrhoea; human patients; oral, dose not given, grade 5, phase I A): 0%
Nc1ccn([C@@H]2O[C@H](COP(=O)(O)O)[C@@H](O)[C@H]2F)c(=O)n1 — metabolic loss (human liver S9; 10 µM, 1 h, pH 7.4, 37 °C): ~20%
CCC1CNC(CC)CN(C(C(=O)[O-])c2ccc(C(=O)[O-])cc2)C(CC)CN(CC(=O)[O-])C(CC)CN1.[Mn+2] (stereo not drawn) — Mn content (ICP-MS; BALB/c mice, intestine; intravenous, 0.05 mmol/kg, 5 min): 19.7 µg/g
CC(C)[C@H](NC(=O)CNC(=O)[C@H](CCC(N)=O)NC(=O)[C@H](C)N)C(=O)O — AUC(0-inf) (LC-MS/MS; human, plasma; intravenous, 20 mg/kg three times daily, day 2, first dose, 10 min infusion, geometric mean): 393 ng·h/mL
NCC(=O)N1CCC[C@H]1C(=O)N1C[C@H](O)C[C@H]1C(=O)O — pKa2 (potentiometric titration; water; 25 °C, 0.15 mol/dm3 NaCl): 3.53
Cc1[nH]c(/C=C2\C(=O)Nc3ccc(F)cc32)c(C)c1NC(=O)CCN1CCN(C)CC1 — accuracy deviation (dog plasma; 1.00 ng/mL, 24 h at room temperature after processing, 25 °C): 0.15%
Cc1ccc(-c2ccc(-c3cc4sccc4o3)cn2)nc1 — emission maximum (acetonitrile; zinc-free ligand): 420 nm
CCCC1OC2CC3C4CCC5=CC(=O)C=CC5(C)C4C(O)CC3(C)C2(C(=O)COC(=O)CN)O1 (stereo not drawn) — time to rapid hydrolysis (human plasma; 200 µg/mL, 37 °C): ≤ 6 h
CC(=O)N[C@@H](CCCCN)C(=O)N[C@@H](CCCCN)C(=O)N[C@@H](CCCCN)C(=O)N[C@@H](CCCCN)C(=O)N[C@@H](CCCCN)C(=O)N[C@@H](CCCCN)C(=O)N[C@@H](CCCCN)C(=O)N[C@@H](CCCCN)C(=O)N[C@@H](CCCCN)C(=O)N[C@@H](CCCCN)C(=O)N[C@@H](CCC(N)=O)C(=O)N[C@@H](Cc1c[nH]c2ccccc12)C(=O)N[C@@H](CCC(N)=O)C(=O)N[C@@H](Cc1c[nH]c2ccccc12)C(=O)N[C@@H](CCC(N)=O)C(=O)N[C@@H](Cc1c[nH]c2ccccc12)C(=O)N[C@@H](CCC(N)=O)C(=O)N[C@@H](Cc1c[nH]c2ccccc12)C(=O)N[C@@H](CCC(N)=O)C(=O)N[C@@H](Cc1c[nH]c2ccccc12)C(=O)N[C@@H](CCC(N)=O)C(=O)N[C@@H](Cc1c[nH]c2ccccc12)C(N)=O — number of subunits per assembly (sedimentation velocity AUC; Tris buffer 20 mM; 20 µM, 24 h, pH 7.4, 4 °C): 12 subunits
NC[C@@H](C(=O)Nc1ccc(-c2cn[nH]c2)cc1)c1ccccc1 — conjunctival redness score (OECD 405 eye irritation; New Zealand White rabbit, eye; topical, 0.1%, 24 h (day 2), scale 0 to 3; direction not given): 0
CC(C)CCN(c1nc(C#N)nc(NC2COC2)n1)C(C)c1ccc(F)cc1 (stereo not drawn) — plasma concentration (female CD-1 mice; intraperitoneal, 10 mg/kg, 7 h): 11.4 ng/mL
N=C(N)NCCC[C@@H]1NC(=O)[C@H](Cc2c[nH]c3ccccc23)NC(=O)[C@@H](CC2CCCCC2)NC(=O)[C@@H]2CCCN2C(=O)[C@@H](NC(=O)CCc2ccccc2)CCCNC1=O — elimination half-life (C57BL/6J mice, plasma; intraperitoneal, 1 mg/kg): 0.169 h
CC[N+]1=C(C=CC=CC=C2N(CCCCCC(=O)O)c3ccc4c(S(=O)(=O)[O-])cc(S(=O)(=O)[O-])cc4c3C2(C)C)C(C)(C)c2c1ccc1c(S(=O)(=O)[O-])cc(S(=O)(=O)[O-])cc21.[K+].[K+].[K+] — quantum yield (100% serum; pH 7.4): 21.3%
NCCCC(=O)OCC(=O)c1ccc(O)c(F)c1F.O=C(O)C(F)(F)F — quantum yield of rearranged acid (photolysis at 300 nm; ammonium acetate buffered acetonitrile-water; pH 5.0, 0.01 mol/L buffer): 0.15
CC[C@@H](C)N([11CH3])C(=O)c1nc(-c2ccc(Cl)cc2)c2ccccc2n1 — plasma free fraction (ultrafiltration; rhesus monkey, plasma; TSPO preblock scan): 0.055 ± 0.005
Clc1ccc2ccc3[n+](c2c1)[Ir-3]12([c]4ccccc4-3)([c]3ccccc3-c3ccc4ccc(Cl)cc4[n+]31)[n+]1ccccc1-c1cccc[n+]12.F[P-](F)(F)(F)(F)F — relative organ weight (BALB/c mice, 4T1 tumour; 2 mg/kg/day; reference: vehicle): no effect
CN(O)C(=O)CCC(=O)NCCCN(CCCCN(CCCNC(=O)CCC(=O)N(C)O)C(=O)CCC(=O)N(C)O)C(=O)CCC(=O)N(C)O.[89Zr] — kidney activity decrease factor (BALB/c mice, kidney; dose not given, 24 h vs 1 h): 7.5
NCCCC(=O)OCC(=O)c1cc(F)c(O)c(F)c1F.O=C(O)C(F)(F)F — quantum yield (photolysis, refers to: disappearance of compound; aqueous HEPES buffer with LiClO4; pH 8.2): 0.02
Oc1ccc2ccccc2c1/N=N/c1ccccc1 — measured concentration (rat whole blood; 16.0 µg/L, 30 days, -20 °C, long-term storage): 16 µg/L
COc1cc(NC(C)=O)c2c(c1O)-c1c(OC)c(OC)cc3c1C(C2)N(C)CC3 (stereo not drawn) — remaining compound (rat heart homogenate; 100 µg/mL, time not given, three freeze-thaw cycles): 105 ± 3.8%
[2H]C([2H])([2H])NC(=O)c1ccc(N2C(=S)N(c3ccc(C#N)c(C(F)(F)F)c3)C(=O)C2(C)C)cc1F — MRT (male human, plasma; oral, 40 mg, single dose, fasted): 186 h
CCCC(CCC)NC(=O)c1ccc(OS(=O)(=O)O)c(OC)c1 — Cmax ratio (male Sprague-Dawley rats, plasma; oral, 200 mg/kg of parent drug; reference: 200 over 20 mg/kg dose): 3.96
O=C(O)CN1CCCN2CCN(CC1)CCN(CC(=O)O)CC2 [copper-64 labelled] — kidney clearance (rat, male, juvenile Lewis; intravenous, 100 µCi, 24 h): 89.2%
C#CCOc1ccc(/C=C2\SC(=O)N(CC(=O)NCc3ccccc3)C2=O)cc1 — Kirkwood-Buff integral G1,3 (inverse Kirkwood-Buff integrals; binary solvent mixture; 298.15 K, mole fraction x1 0.80): -259 cm³/mol
CN1CCC[C@]1(C)/C=C/S(=O)(=O)NC(=O)Nc1c2c(cc3c1CCC3)CCC2 — AUC(0-tau) (human, plasma; oral, 12.5 mg twice daily, day 1, tau 12 h, multiple ascending dose): 7700 ng·h/mL
CC(C)(C)ONc1nc(Nc2ccnc(C(F)(F)F)c2)nc(-c2cccc(C(F)(F)F)n2)n1 — tissue/plasma ratio (female Balb/cA nude mice xenograft; oral, 54.14 mg/kg, AUC(0-24 h); reference: tumour over plasma): 4.8
CN(C)c1ccc(-c2nc3ccc(OCCCCCN4CCN5CCN(CC4)CC(=O)[O][Al]([18F])[O]C(=O)C5)cc3s2)cc1 — stomach uptake (ICR mouse; intravenous, dose not given, 60 min): 3.83 ± 1.39 % injected dose/organ
CC(C)(O)c1ncc([S@](N)(=O)=NC(=O)Nc2c3c(cc4c2CCC4)CCC3)s1 — Tmax (healthy human volunteers, plasma; oral, 50 mg twice daily, day 14, fed, enteric-coated tablet): 2.25 h
Oc1cccc(-c2cccc(O)n2)n1.[Cl-].[Cl-].[Ru+2].c1cnc2c(c1)c1c(c3cccnc32)OCCO1.c1cnc2c(c1)c1c(c3cccnc32)OCCO1 — logD (shake flask; octanol/phosphate buffer; pH 7.00): 1.62
CCCC[C@H](NC(=O)CNC(=O)CNC(=O)CN1CCN(CC(=O)O)CCN(CC(=O)O)CCN(CC(=O)O)CC1)C(=O)N[C@H]1CC(=O)NCCCC[C@@H](C(N)=O)NC(=O)[C@H](Cc2c[nH]c3ccccc23)NC(=O)[C@H](CCCNC(=N)N)NC(=O)[C@@H](Cc2ccccc2)NC(=O)[C@H](Cc2c[nH]cn2)NC1=O [copper-64 labelled] — uptake ratio (female C57 mouse, B16/F1 melanoma; intravenous, 0.037 MBq, 24 h; reference: tumour over blood): 5.57
CCc1cc(Nc2nc(-c3ccc(-n4cnc(C)c4)c(F)c3)cs2)c(C)cc1C — terminal elimination rate constant (human, both sexes, plasma; oral, 100 mg once daily, day 14, multiple dose, geometric mean): 2.22e-05 s⁻¹
Cn1c(=O)oc2ccc(-c3ccc(CC(C#N)NC(=O)C4CNCCCO4)c(F)c3)cc21 (stereo not drawn) — ALT increased incidence (human; oral, 40 mg once daily, treatment-related AE, multiple ascending dose): 0%
CC[C@H](C)[C@H](NC(=O)[C@H](CC(C)C)NC(=O)[C@H](Cc1c[nH]c2ccccc12)NC(=O)[C@H](C)NC(=O)[C@@H](NC(=O)[C@H](Cc1ccccc1)NC(=O)[C@H](CC(=O)O)NC(=O)[C@H](CCCNC(=N)N)NC(=O)[C@H](C)NC(=O)[C@H](C)NC(=O)[C@H](CC(C)C)NC(=O)[C@H](C)NC(=O)[C@H](CC(=O)O)NC(=O)[C@H](CC(C)C)NC(=O)[C@@H](NC(=O)[C@@H](NC(=O)[C@H](C)NC(=O)[C@H](CC(C)C)NC(=O)[C@H](CCC(=O)O)NC(=O)[C@H](CO)NC(=O)[C@H](CO)NC(=O)[C@H](Cc1ccccc1)NC(=O)[C@@H](NC(=O)CNC(=O)[C@H](CCC(=O)O)NC(=O)CNC(=O)[C@@H](N)Cc1c[nH]cn1)[C@@H](C)O)[C@@H](C)O)[C@@H](C)CC)[C@@H](C)CC)C(=O)N[C@@H](C)C(=O)N[C@H](C(=O)N[C@@H](CCCCN)C(=O)N[C@H](C(=O)N[C@H](C(=O)N[C@@H](CC(=O)O)C(=O)N[C@@H](CCCCN)C(=O)O)[C@@H](C)O)[C@@H](C)CC)[C@@H](C)O — AUClast (immunoaffinity LC-MS/MS; healthy human subjects, plasma; intravenous infusion, 1 mg single dose, infused over 15 min): 1.58 nM·h
Cc1cc(C)c(S(=O)(=O)N(CC(=O)O)c2ccc(Nc3ccnc(N4CCCC4)n3)cc2)c(C)c1 — clearance (HCT-116 xenograft mice, plasma; intraperitoneal, 100 mg/kg single dose): 29.9 mL/min/kg
CC(C)C[C@@H](NC(=O)[C@H](NC(=O)[C@H]1CCCN1)[C@H](C)O)C(=O)N[C@H](Cc1c[nH]cn1)C(=O)N[C@@H](C(=O)N[C@H](Cc1c[nH]cn1)C(=O)N[C@H](CC(N)=O)C(=O)N[C@H](CCCNC(=N)N)C(=O)N[C@H](CCCNC(=N)N)C(=O)N[C@H](CCCNC(=N)N)C(=O)N[C@H](CCCNC(=N)N)C(=O)N[C@H](CCCNC(=N)N)C(N)=O)[C@H](C)O — half-life (beagle dog, plasma; oral, 50 mg/kg, single dose): 77 h
O=c1c2ccccc2[se]n1CCCCCCn1[se]c2ccccc2c1=O — solubility (10% Soluplus in water; 24 h, 25 °C, 100 mg/mL): 515 ± 8 µg/mL (≈ 1080 µM)
O=C(Cn1c(=O)c(Cc2ccccc2)nc2ccccc21)NCCOCCO — safe concentration (MTT; rat primary colonocytes, Albino rat, male; 72 h, concentration at 100% viability): 0.17 ± 0.002 µM
COc1cc(C)c(Cc2ccc(O)cc2)cc1[C@@H]1S[C@H](CO)[C@@H](O)[C@H](O)[C@H]1O — urinary excretion 0-24 h (Japanese T2DM patients, urine; 1 mg luseogliflozin, day 7, once daily; reference: dose): 11.1 ± 1.27%
CC(=O)N[C@H](CSSC[C@H](N)C(=O)O)C(=O)N[C@H](C)C(=O)N[C@H](CCCNC(=N)N)C(=O)N[C@H](CCCNC(=N)N)C(=O)N[C@H](CCCNC(=N)N)C(=O)N[C@H](C)C(=O)N[C@H](CCCNC(=N)N)C(N)=O — terminal half-life (human, healthy males, plasma; intravenous, 0.5 to 10 mg, overall across doses): ~19 h
[11CH3]c1ccc2nc(C3CCC3)n(-c3ccc4[nH]ncc4c3)c2n1 — absorbed dose (extrapolated from mouse biodistribution; human female, drain): 1.2 µSv/MBq
NCCCC(=O)OCC(=O)c1c(F)cc(O)cc1F.O=C(O)C(F)(F)F — quantum yield (photolysis, refers to: GABA appearance; unbuffered water): 0.16

Excerpt of the above:
Clc1ccc2ccc3[n+](c2c1)[Ir-3]12([c]4ccccc4-3)([c]3ccccc3-c3ccc4ccc(Cl)cc4[n+]31)[n+]1ccccc1-c1cccc[n+]12.F[P-](F)(F)(F)(F)F — relative organ weight (BALB/c mice, 4T1 tumour; 2 mg/kg/day; reference: vehicle): no effect
CN(O)C(=O)CCC(=O)NCCCN(CCCCN(CCCNC(=O)CCC(=O)N(C)O)C(=O)CCC(=O)N(C)O)C(=O)CCC(=O)N(C)O.[89Zr] — kidney activity decrease factor (BALB/c mice, kidney; dose not given, 24 h vs 1 h): 7.5
NCCCC(=O)OCC(=O)c1cc(F)c(O)c(F)c1F.O=C(O)C(F)(F)F — quantum yield (photolysis, refers to: disappearance of compound; aqueous HEPES buffer with LiClO4; pH 8.2): 0.02
Oc1ccc2ccccc2c1/N=N/c1ccccc1 — measured concentration (rat whole blood; 16.0 µg/L, 30 days, -20 °C, long-term storage): 16 µg/L
COc1cc(NC(C)=O)c2c(c1O)-c1c(OC)c(OC)cc3c1C(C2)N(C)CC3 (stereo not drawn) — remaining compound (rat heart homogenate; 100 µg/mL, time not given, three freeze-thaw cycles): 105 ± 3.8%
[2H]C([2H])([2H])NC(=O)c1ccc(N2C(=S)N(c3ccc(C#N)c(C(F)(F)F)c3)C(=O)C2(C)C)cc1F — MRT (male human, plasma; oral, 40 mg, single dose, fasted): 186 h
